Results gathered from unrelated publications.
Parts stem from different laboratories: compare values within a part only.
Sequence of UniProt P13945 (whole entry, looked up): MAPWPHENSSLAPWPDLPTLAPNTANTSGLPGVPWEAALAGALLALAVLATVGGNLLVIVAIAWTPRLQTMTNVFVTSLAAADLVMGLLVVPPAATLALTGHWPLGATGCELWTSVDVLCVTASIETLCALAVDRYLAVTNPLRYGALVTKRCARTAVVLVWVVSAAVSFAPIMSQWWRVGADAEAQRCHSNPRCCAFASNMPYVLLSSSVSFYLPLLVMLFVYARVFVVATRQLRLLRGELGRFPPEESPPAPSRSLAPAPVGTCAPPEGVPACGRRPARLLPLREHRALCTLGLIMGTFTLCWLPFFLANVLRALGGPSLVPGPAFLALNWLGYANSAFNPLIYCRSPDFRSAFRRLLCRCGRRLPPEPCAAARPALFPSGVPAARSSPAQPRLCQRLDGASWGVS
Sequence of UniProt P21917 (whole entry, looked up): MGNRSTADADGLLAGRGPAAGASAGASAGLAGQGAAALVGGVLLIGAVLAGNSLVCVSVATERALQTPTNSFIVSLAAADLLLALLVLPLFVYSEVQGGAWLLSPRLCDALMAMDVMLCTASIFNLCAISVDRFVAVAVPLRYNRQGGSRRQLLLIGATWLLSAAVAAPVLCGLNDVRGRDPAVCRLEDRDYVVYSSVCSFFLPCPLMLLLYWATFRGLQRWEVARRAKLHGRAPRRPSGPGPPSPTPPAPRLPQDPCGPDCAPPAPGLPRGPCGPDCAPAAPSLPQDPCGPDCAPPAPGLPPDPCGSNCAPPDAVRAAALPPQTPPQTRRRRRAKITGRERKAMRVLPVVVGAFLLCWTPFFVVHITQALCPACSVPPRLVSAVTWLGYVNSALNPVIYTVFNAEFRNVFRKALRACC
Sequence of UniProt P35462 (whole entry, looked up): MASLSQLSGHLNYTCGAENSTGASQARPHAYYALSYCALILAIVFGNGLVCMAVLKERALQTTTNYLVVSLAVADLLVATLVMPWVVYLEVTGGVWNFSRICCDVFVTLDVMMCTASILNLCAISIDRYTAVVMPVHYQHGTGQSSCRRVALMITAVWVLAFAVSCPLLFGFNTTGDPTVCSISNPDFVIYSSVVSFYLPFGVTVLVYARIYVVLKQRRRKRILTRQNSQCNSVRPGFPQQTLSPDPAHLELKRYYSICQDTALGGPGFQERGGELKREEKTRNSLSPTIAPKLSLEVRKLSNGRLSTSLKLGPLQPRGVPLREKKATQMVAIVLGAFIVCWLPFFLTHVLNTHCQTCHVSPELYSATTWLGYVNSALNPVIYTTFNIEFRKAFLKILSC
Sequence of UniProt P25100 (whole entry, looked up): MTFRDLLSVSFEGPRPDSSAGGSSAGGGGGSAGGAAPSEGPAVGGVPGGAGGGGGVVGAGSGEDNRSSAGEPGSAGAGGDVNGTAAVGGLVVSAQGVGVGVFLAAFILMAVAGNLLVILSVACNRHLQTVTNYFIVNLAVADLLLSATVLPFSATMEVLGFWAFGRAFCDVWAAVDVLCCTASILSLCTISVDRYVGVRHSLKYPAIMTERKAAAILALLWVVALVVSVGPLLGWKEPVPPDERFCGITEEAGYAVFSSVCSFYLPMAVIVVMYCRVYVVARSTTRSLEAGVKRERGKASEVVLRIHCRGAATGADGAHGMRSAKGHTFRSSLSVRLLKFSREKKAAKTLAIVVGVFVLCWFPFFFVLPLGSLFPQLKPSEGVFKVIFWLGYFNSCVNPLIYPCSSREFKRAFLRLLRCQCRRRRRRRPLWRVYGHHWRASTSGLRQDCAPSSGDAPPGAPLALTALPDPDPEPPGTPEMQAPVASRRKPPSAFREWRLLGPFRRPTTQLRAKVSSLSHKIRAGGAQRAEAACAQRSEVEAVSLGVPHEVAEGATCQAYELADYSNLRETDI
Sequence of UniProt P08913 (whole entry, looked up): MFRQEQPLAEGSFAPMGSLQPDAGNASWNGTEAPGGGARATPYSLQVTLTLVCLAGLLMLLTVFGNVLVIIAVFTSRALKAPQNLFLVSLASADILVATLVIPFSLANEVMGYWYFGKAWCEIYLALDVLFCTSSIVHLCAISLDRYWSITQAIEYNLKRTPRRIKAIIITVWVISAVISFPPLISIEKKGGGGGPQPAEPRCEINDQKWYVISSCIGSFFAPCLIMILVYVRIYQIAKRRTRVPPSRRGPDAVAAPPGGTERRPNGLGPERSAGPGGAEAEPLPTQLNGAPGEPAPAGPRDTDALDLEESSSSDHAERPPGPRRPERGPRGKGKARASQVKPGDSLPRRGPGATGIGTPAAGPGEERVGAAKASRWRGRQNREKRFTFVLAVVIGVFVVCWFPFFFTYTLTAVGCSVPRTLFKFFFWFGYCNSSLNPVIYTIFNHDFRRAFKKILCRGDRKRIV
Sequence of UniProt P07550 (whole entry, looked up): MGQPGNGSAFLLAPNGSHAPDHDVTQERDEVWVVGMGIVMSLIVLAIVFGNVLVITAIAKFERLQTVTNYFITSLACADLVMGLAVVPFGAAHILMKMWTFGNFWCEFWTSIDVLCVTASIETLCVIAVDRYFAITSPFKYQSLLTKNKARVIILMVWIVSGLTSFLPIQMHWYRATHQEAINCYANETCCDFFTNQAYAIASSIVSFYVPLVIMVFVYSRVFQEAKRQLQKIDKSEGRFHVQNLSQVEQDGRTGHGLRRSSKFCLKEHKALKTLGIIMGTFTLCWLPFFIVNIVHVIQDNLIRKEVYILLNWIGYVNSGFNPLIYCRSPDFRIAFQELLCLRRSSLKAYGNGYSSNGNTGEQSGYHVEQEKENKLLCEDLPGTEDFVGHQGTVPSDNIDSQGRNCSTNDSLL
Sequence of UniProt Q9H3N8 (whole entry, looked up): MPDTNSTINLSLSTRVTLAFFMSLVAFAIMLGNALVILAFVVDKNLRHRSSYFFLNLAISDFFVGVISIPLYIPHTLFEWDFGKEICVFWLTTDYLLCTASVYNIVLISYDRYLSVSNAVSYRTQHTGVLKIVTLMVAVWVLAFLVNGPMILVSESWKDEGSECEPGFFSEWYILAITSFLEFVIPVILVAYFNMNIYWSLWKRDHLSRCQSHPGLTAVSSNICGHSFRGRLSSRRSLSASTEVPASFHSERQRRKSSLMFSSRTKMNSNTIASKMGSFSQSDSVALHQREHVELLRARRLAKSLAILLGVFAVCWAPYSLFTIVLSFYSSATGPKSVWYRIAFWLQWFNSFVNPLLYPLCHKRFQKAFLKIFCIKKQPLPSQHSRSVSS
Sequence of UniProt P25021 (whole entry, looked up): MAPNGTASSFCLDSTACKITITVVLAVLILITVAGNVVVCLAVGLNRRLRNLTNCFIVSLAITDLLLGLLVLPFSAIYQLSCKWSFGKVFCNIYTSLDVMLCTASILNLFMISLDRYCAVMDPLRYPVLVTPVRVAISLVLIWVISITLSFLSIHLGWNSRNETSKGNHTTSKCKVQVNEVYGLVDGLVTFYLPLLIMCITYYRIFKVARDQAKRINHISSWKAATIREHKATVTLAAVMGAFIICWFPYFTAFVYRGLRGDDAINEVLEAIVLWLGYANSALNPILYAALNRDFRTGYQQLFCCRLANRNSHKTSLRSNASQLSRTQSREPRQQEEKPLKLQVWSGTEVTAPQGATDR
Sequence of UniProt P08588 (whole entry, looked up): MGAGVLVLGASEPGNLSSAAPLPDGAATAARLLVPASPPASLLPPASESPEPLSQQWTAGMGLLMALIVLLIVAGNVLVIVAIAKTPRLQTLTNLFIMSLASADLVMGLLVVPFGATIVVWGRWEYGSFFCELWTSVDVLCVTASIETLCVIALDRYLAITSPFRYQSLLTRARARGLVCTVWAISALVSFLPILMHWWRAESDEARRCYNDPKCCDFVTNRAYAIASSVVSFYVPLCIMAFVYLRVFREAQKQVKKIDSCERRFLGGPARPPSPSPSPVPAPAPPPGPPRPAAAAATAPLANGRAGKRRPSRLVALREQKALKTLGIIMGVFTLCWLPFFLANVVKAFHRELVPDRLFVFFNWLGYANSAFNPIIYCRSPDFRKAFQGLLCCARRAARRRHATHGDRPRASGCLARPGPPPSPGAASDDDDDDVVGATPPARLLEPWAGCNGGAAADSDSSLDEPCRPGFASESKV
Sequence of UniProt P08912 (whole entry, looked up): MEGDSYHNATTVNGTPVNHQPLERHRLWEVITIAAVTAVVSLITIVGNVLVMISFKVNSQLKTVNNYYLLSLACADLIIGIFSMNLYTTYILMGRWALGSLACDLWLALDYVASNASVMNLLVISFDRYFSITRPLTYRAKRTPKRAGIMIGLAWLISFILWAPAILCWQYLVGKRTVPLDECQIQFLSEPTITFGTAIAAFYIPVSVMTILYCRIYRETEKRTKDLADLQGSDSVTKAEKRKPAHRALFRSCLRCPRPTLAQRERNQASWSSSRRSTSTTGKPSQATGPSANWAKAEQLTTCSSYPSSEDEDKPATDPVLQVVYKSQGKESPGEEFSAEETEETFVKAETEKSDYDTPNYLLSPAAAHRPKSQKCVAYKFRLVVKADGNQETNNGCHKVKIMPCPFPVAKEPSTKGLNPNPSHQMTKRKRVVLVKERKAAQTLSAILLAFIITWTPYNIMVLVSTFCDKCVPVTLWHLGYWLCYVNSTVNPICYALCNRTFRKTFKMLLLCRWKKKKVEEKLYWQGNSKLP

Study 1
SMILES: O=C(NNS(=O)(=O)c1ccccc1)c1cc(-c2ccnnc2)ccc1F
Read-out: cell-free assay
Tested at: 10 µM
Measurement: inhibition
D(4) dopamine receptor (DRD4, Homo sapiens, UniProt P21917): 9.83%
Beta-1 adrenergic receptor (ADRB1, Homo sapiens, UniProt P08588): 11.2%
Muscarinic acetylcholine receptor M5 (CHRM5, Homo sapiens, UniProt P08912): -10.6%
Alpha-1A adrenergic receptor (ADRA1A, Homo sapiens, UniProt P35348): 18.6%
5-hydroxytryptamine receptor 2B (HTR2B, Homo sapiens, UniProt P41595): 40.1%
Alpha-2B adrenergic receptor (ADRA2B, Homo sapiens, UniProt P18089): 3.07%
Alpha-2A adrenergic receptor (ADRA2A, Homo sapiens, UniProt P08913): 68.5%
Beta-3 adrenergic receptor (ADRB3, Homo sapiens, UniProt P13945): -12%
Alpha-1D adrenergic receptor (ADRA1D, Homo sapiens, UniProt P25100): 17.4%
Muscarinic acetylcholine receptor M2 (CHRM2, Homo sapiens, UniProt P08172): -5.57%
Beta-2 adrenergic receptor (ADRB2, Homo sapiens, UniProt P07550): 10.4%
Alpha-2C adrenergic receptor (ADRA2C, Homo sapiens, UniProt P18825): -5.42%
Sigma intracellular receptor 2 (TMEM97, Homo sapiens, UniProt Q5BJF2): 40.1%
Muscarinic acetylcholine receptor M4 (CHRM4, Homo sapiens, UniProt P08173): -11.8%
D(1A) dopamine receptor (DRD1, Homo sapiens, UniProt P21728): 8.58%
D(2) dopamine receptor (DRD2, Homo sapiens, UniProt P14416): 14.7%
Histamine H1 receptor (HRH1, Homo sapiens, UniProt P35367): -2.04%
Histamine H3 receptor (HRH3, Homo sapiens, UniProt Q9Y5N1): 15.5%
Histamine H4 receptor (HRH4, Homo sapiens, UniProt Q9H3N8): -19.8%
Histamine H2 receptor (HRH2, Homo sapiens, UniProt P25021): -5.93%
D(3) dopamine receptor (DRD3, Homo sapiens, UniProt P35462): -8.61%

Study 2
Species: human
Sample: microsomes or S9
Tested at: 2 µM
Time: 0.5 h
Measurement: remaining compound
CC1CCN(Cc2nc(N)nc(Nc3ccc(Cl)cc3)n2)CC1: 83.9%
CCOC(=O)COc1cc(Br)c(C#N)cc1OCC: 54.5%
Cc1nn(C(C)(C)C)c(C)c1S(=O)(=O)N1CC(C)OC(C)(C)C1 (centres unmarked): 0.0276%
CC(CC(=O)c1ccc2ccccc2c1)n1nnc(-c2ccccc2)n1 (centres unmarked): 3.16%
CCn1cc(S(=O)(=O)N2CCC3(CCCCO3)CC2)cn1: > 100%
O=C(NCc1ccccc1)c1ccc(CN(c2ccccc2)S(=O)(=O)c2ccccc2)cc1: 29%
CC(O)CC(C)(C)CNC(=O)Nc1cc(CC(C)(C)C)nn1C (centres unmarked): 31.8%
Cc1cc(O)c(C(c2ccco2)c2c(O)cc(C)n(C)c2=O)c(=O)n1C: 87.7%
Cc1ccc(S(=O)(=O)n2cc(Br)c3c(N4C[C@@H](C)O[C@@H](C)C4)ncnc32)cc1: 22.1%
O=C(Nc1n[nH]c2cc(Br)ccc12)c1cc(-c2cccnc2)[nH]n1: 70.9%
COC(=O)c1ccc2c(c1)nc(-c1ccc(C(C)(C)C)cc1)n2Cc1ccc(F)cc1: 94.7%
Cc1c(C)n(CCN2CCOCC2)c2ncn3nc(-c4ccc(Cl)cc4Cl)nc3c12: > 100%
O=C(O)CC1NC(=O)N(c2ccc(Cl)cc2)C1=O (centres unmarked): 81.8%
O=C(CCn1ccc2ccc(F)cc21)Nc1nc[nH]n1: 85%
Cc1nnc(N2CCc3nn(C)c(=O)cc3C2)c(C#N)c1C: > 100%

Study 3
Cell line: mouse MPNST tumor cells
Method: high-content immunofluorescence imaging
Item: nuclear SOX9
Tested at: 10 µM
Time: 12 h
Notes: mean of 2 replicates
Baseline: DMSO control
Reading: higher = more nuclear SOX9
Measurement: nuclear SOX9 intensity
O=C(Nc1ccccc1)c1ccc(NC(=O)c2ccc(Cl)cc2Cl)cc1: 89.4 % of DMSO
CC(C)Cn1c(=O)n(C)c(=O)c2[nH]cnc21: 102 % of DMSO
NCCCC(N)(C(=O)O)C(F)F (centres unmarked): 78.4 % of DMSO
COC(=O)c1c(-c2cc(OC)c(OC)c(OC)c2)c2ccnc(OCc3ncccn3)c2c(=O)n1Cc1ccnc(C)c1: 101 % of DMSO
CC(C)Oc1cccc(-n2c(CCc3c[nH]c4ccc(Br)cc34)nc3ccccc3c2=O)c1: 107 % of DMSO
c1ccc(C(NCCNC(c2ccccc2)c2ccccc2)c2ccccc2)cc1: 100 % of DMSO
COC(=O)c1sccc1S(=O)(=O)Nc1ccc(Nc2ccccc2)cc1OC: 93.1 % of DMSO
O=C(CNC(=O)c1ccc(-c2ccccc2)cc1)NC1CCCc2ccccc21 (centres unmarked): 103 % of DMSO

Study 4
Target: Calcium/calmodulin-dependent protein kinase type II subunit alpha (CAMK2A, Homo sapiens, UniProt Q9UQM7)
Sequence of UniProt Q9UQM7 (whole entry, looked up): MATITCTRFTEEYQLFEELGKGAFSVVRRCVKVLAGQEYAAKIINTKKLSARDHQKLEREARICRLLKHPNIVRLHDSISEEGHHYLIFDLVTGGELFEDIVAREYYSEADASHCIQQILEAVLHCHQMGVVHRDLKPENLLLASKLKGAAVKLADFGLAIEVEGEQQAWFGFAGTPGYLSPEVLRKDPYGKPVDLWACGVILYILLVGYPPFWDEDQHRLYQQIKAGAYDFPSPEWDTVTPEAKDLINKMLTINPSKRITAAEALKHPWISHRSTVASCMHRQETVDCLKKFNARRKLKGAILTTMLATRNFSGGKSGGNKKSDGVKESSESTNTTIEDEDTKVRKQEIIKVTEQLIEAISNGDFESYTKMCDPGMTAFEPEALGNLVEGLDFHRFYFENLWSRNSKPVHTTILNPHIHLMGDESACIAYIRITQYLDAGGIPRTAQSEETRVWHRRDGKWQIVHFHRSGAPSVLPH
Read-out: enzyme activity
Action: inhibitor
Tested at: 10 µM
Measurement: inhibition
CC(=O)OC(C)(C)CC(=O)O[C@H](CC=C(C)C)C1=CC(=O)c2c(O)ccc(O)c2C1=O: -10%
C=C[C@@H]1C2=CCOC(=O)C2=CO[C@H]1O[C@@H]1O[C@H](CO[C@@H]2O[C@H](CO)[C@@H](O)[C@H](O)[C@H]2O)[C@@H](O)[C@H](O)[C@H]1O: 13%
CC(=O)O[C@H]1C(=O)[C@]2(C)[C@H](O)C[C@H]3OC[C@@]3(OC(C)=O)[C@H]2[C@H](OC(=O)c2ccccc2)[C@]2(O)C[C@H](OC(=O)[C@H](O)[C@@H](NC(=O)c3ccccc3)c3ccccc3)C(C)=C1C2(C)C: 1%
CC1=C[C@@]2(O)O[C@@]3(CC2=C(C)C)[C@@H](C)CC[C@@H]13: 30%
CC(c1cc2ccccc2s1)N(O)C(N)=O (centres unmarked): 5%
CC(C)n1c(/C=C/[C@H](O)C[C@H](O)CC(=O)O)c(-c2ccc(F)cc2)c2ccccc21 (racemic): -5%
COc1cnc(NS(=O)(=O)c2ccc(N)cc2)nc1: -10%
CN1C[C@H](C(=O)N[C@]2(C)O[C@@]3(O)[C@@H]4CCCN4C(=O)[C@H](Cc4ccccc4)N3C2=O)C[C@@H]2c3cccc4[nH]cc(c34)C[C@H]21: -12%
CN/C(=C\[N+](=O)[O-])NCCSCc1ccc(CN(C)C)o1: -6%

For quick reference, copied from above (study 2):
O=C(CCn1ccc2ccc(F)cc21)Nc1nc[nH]n1: 85%
Cc1nn(C(C)(C)C)c(C)c1S(=O)(=O)N1CC(C)OC(C)(C)C1 (centres unmarked): 0.0276%
COC(=O)c1ccc2c(c1)nc(-c1ccc(C(C)(C)C)cc1)n2Cc1ccc(F)cc1: 94.7%
CC(O)CC(C)(C)CNC(=O)Nc1cc(CC(C)(C)C)nn1C (centres unmarked): 31.8%
CCOC(=O)COc1cc(Br)c(C#N)cc1OCC: 54.5%
CC(CC(=O)c1ccc2ccccc2c1)n1nnc(-c2ccccc2)n1 (centres unmarked): 3.16%
